Measurements pooled from the literature.
Each line is one published result; not all experiments were run side by side. Values joined by “and” are separate records of one study, mostly repeats; a detail may differ. ± marks the error that the study gave.
serine/threonine phosphatase Stp1: serine/threonine phosphatase Stp1 (Staphylococcus aureus, UniProt A0A0H2XF73)
SIRT2: NAD-dependent protein deacetylase sirtuin-2 (SIRT2, Homo sapiens, UniProt Q8IXJ6)
Sequence of UniProt Q8IXJ6 (whole entry, looked up): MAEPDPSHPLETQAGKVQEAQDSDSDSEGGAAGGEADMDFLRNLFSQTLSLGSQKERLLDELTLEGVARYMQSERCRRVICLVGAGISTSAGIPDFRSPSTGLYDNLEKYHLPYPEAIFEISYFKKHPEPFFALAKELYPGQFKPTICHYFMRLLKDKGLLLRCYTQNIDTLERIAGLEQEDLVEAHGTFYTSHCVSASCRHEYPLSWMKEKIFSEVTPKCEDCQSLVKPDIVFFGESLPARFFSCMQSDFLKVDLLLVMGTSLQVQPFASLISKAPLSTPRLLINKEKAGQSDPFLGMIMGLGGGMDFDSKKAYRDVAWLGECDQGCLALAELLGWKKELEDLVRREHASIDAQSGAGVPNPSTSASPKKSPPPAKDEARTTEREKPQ
CTNNB1 with BCL9 HD2: Catenin beta-1, with BCL9 HD2 (CTNNB1, Homo sapiens, UniProt P35222)
Sequence of UniProt P35222 (whole entry, looked up): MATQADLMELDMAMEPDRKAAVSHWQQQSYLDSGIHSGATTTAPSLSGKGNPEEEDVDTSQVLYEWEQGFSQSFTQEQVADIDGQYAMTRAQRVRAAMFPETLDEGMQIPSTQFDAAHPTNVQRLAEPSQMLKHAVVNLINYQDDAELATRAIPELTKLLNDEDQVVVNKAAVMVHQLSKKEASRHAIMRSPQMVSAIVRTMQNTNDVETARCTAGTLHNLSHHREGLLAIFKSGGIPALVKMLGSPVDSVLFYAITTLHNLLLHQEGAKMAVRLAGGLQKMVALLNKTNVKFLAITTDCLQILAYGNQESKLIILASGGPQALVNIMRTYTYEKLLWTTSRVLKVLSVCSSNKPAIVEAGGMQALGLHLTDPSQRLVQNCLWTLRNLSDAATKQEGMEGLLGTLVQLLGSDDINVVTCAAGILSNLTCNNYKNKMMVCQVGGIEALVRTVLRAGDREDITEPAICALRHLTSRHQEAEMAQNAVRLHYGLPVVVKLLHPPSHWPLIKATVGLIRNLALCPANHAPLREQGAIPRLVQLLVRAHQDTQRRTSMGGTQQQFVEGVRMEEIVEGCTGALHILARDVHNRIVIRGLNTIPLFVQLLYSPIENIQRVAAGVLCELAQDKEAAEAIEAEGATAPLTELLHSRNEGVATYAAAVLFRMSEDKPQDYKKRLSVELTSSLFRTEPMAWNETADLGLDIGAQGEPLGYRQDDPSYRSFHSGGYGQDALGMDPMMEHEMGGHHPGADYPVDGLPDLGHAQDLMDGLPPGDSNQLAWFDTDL
BRD4 BD1: Bromodomain-containing protein 4, BD1 (BRD4, Homo sapiens, UniProt O60885)
CYP2C8: Cytochrome P450 2C8 (CYP2C8, Homo sapiens, UniProt P10632)
Sequence of UniProt P10632 (whole entry, looked up): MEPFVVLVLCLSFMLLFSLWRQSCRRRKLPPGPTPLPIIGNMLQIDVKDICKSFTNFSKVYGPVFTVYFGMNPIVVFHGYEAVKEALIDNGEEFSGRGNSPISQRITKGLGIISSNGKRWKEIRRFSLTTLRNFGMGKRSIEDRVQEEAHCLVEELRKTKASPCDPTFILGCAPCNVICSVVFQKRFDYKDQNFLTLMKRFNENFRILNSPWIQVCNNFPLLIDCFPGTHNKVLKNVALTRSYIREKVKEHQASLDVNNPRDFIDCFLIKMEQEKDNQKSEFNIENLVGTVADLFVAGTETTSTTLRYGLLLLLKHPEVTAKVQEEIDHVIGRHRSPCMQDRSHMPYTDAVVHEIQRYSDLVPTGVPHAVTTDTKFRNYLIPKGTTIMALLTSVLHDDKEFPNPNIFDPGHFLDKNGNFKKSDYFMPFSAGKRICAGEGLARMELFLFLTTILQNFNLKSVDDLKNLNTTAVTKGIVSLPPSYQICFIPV
Histone acetyltransferase RTT109 with Vps75: Histone acetyltransferase RTT109, with Vps75 (Saccharomyces cerevisiae, UniProt Q07794)
Sequence of UniProt Q07794 (whole entry, looked up): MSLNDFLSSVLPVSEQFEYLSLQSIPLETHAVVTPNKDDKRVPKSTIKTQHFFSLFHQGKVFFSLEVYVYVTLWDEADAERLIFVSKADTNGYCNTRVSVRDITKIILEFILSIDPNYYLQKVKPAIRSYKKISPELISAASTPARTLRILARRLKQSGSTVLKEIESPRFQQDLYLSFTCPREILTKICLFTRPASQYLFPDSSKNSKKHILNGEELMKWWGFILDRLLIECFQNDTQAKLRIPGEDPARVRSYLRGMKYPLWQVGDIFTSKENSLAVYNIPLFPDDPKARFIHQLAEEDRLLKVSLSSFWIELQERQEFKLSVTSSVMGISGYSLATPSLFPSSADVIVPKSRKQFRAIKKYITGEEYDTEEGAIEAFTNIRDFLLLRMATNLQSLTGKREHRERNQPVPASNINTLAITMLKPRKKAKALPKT
BRD4 BD2: Bromodomain-containing protein 4, BD2 (BRD4, Homo sapiens, UniProt O60885)
UCHL1: Ubiquitin carboxyl-terminal hydrolase isozyme L1 (UCHL1, Homo sapiens, UniProt P09936)
Sequence of UniProt P09936 (whole entry, looked up): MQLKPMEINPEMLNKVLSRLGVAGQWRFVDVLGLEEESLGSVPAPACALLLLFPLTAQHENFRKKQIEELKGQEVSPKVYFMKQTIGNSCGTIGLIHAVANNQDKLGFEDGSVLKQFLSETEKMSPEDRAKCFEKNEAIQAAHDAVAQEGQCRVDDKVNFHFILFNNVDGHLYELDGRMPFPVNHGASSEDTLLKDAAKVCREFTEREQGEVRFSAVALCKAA
Sequence of UniProt Q9WVG6 (whole entry, looked up): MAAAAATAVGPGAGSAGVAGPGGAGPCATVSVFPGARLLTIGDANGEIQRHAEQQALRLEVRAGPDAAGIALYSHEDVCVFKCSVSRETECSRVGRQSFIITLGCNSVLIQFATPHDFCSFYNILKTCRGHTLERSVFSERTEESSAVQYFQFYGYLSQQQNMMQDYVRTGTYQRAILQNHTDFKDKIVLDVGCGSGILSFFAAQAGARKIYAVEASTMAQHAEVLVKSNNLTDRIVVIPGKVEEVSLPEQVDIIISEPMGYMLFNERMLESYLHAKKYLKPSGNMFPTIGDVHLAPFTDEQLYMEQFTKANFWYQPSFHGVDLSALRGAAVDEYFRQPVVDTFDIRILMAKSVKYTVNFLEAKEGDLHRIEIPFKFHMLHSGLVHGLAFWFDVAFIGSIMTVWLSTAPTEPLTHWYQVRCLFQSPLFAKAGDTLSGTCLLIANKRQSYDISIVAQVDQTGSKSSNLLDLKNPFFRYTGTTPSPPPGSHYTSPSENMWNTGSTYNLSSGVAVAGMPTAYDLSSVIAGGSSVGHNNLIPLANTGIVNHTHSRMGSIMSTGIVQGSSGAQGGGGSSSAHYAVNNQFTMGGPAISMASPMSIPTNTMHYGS
Sequence of UniProt P42336 (whole entry, looked up): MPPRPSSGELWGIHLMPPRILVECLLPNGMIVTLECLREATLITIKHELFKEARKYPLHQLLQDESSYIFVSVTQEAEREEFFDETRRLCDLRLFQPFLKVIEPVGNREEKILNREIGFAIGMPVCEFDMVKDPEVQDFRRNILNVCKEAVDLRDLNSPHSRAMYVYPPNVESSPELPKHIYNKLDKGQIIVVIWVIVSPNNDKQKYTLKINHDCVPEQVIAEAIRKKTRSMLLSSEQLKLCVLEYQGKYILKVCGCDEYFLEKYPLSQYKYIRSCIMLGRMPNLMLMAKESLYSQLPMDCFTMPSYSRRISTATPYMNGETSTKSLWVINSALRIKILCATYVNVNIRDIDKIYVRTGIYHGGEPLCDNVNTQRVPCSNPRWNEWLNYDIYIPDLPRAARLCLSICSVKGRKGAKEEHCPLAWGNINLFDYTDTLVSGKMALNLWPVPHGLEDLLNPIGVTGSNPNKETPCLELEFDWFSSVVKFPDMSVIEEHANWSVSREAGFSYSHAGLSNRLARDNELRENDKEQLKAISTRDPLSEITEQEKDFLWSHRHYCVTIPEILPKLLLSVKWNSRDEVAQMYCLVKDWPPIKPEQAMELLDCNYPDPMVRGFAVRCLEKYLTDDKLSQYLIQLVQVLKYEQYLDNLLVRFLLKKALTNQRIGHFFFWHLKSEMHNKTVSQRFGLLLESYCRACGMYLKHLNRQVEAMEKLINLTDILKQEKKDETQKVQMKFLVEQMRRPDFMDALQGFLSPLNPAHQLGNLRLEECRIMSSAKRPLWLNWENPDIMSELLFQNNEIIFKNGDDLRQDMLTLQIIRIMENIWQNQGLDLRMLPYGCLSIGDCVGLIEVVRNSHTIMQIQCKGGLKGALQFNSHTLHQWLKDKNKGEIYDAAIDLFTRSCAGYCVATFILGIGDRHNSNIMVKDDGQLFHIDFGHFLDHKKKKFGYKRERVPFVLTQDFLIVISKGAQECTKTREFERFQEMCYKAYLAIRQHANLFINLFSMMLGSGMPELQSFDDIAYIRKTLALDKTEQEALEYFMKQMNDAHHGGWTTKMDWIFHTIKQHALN
Sequence of UniProt Q9H0J9 (whole entry, looked up): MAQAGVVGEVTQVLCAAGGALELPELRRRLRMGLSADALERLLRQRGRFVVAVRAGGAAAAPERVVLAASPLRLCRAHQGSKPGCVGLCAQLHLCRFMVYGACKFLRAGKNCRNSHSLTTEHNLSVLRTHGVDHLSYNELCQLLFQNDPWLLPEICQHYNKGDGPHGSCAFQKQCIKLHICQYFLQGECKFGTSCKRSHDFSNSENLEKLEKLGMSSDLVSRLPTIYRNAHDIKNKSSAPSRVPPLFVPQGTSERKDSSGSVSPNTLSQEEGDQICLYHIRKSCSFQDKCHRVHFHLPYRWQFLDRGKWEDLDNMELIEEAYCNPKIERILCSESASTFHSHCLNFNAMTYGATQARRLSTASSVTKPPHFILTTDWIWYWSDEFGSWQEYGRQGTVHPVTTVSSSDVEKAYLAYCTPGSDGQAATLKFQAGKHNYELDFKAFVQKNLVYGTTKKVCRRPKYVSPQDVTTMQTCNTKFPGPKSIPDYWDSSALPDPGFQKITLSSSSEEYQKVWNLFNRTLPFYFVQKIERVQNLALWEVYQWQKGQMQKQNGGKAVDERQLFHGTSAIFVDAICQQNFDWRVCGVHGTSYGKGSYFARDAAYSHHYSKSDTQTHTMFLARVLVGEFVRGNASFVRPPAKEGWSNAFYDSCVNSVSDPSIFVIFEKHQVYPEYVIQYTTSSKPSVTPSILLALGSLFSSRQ
Sequence of UniProt P00760 (whole entry, looked up): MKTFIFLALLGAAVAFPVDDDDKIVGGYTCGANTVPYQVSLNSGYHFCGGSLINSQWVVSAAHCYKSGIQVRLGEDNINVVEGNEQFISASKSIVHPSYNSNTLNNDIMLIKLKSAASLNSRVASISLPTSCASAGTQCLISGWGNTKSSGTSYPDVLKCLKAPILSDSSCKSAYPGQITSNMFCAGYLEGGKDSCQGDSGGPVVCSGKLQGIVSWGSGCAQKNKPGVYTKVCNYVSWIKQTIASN

SMILES	target	assay	system	setting	how to read	IC50
CCn1c(-c2nc3cc(C(=O)N4CCC[C@@H](N)C4)cc(OC)c3n2C)cc2cccnc21	Substance-P receptor (TACR1, Homo sapiens, UniProt P25103)	intracellular calcium, antagonist, luminescence				> 39.8 µM
C[C@@H]1O[C@@H](Oc2c(-c3ccc(O)c(O)c3)oc3cc(O)cc(O)c3c2=O)[C@H](O)[C@H](O)[C@H]1O	serine/threonine phosphatase Stp1	phosphatase activity, inhibitor				> 223 µM
C=C(NC(=O)[C@H](CCCCNC(=S)CCCCCCCCCCCCC)NS(C)(=O)=O)C(=O)N[C@@H](CCCNC(=N)N)C(N)=O	SIRT2	enzyme activity, inhibitor				0.14 ± 0.03 µM
O=C(Nc1cccnn1)N1CCC(=Cc2cccc(Oc3ccc(C(F)(F)F)cn3)c2)CC1	Fatty-acid amide hydrolase 1 (Faah, Rattus norvegicus, UniProt P97612)	enzyme activity, inhibitor	rat brain membranes	15 min preincubation		0.0015 µM
COc1ccc(C)cc1CN1CCC(c2cc3ncccc3cn2)CC1	CTNNB1 with BCL9 HD2	BCL9 binding, inhibitor, AlphaScreen				5.98 µM
CCCCCCCCCCCCNC(=S)NCCCC[C@H](NC(=O)OCc1ccccc1)C(=O)N[C@@H](Cc1c[nH]c2ccccc12)C(=O)N[C@@H](CCC(=O)O)C(N)=O	SIRT2	enzyme activity, inhibitor				9.6 ± 1.1 µM
COc1ccc(-c2cc(=O)c3ccc(Nc4ncc5cc(C(=O)N(C)C)n(C6CCCC6)c5n4)cc3o2)cc1	BRD4 BD1	inhibitor				1.37 µM
CC1(C)CC[C@]2(C(=O)O)CC[C@]3(C)C(=CC[C@@H]4[C@@]5(C)CC[C@H](O[C@@H]6O[C@H](C(=O)O)[C@@H](O)[C@H](O[C@@H]7OC[C@@H](O)[C@H](O)[C@H]7O)[C@H]6O)C(C)(C)[C@@H]5CC[C@]43C)[C@@H]2C1	serine/threonine phosphatase Stp1	inhibitor				26.1 µM
O=C(O)c1ccc2nc(-c3ccc(OCC(COc4ccc(-c5nc6ccc(C(=O)O)cc6[nH]5)cc4)(COc4ccc(-c5nc6ccc(C(=O)O)cc6[nH]5)cc4)COc4ccc(-c5nc6ccc(C(=O)O)cc6[nH]5)cc4)cc3)[nH]c2c1	Beta-lactamase (Escherichia coli, UniProt Q8VNN1)	enzyme activity, inhibitor				37 ± 9.6 µM
CC(=O)c1cnc2ccc(-c3cc(Cl)c(O)c(Cl)c3)nc2c1N[C@H]1CC[C@H](CN(C)C)CC1	Receptor-like protein kinase FERONIA (FER, Arabidopsis thaliana, UniProt Q9SCZ4, D679A)	kinase activity, inhibitor, ADP-Glo				> 100 µM
N#C[C@H](C[C@@H]1CCCNC1=O)NC(=O)[C@H](CC1CC1)NC(=O)c1cc2cccc(Cl)c2[nH]1	CYP2C8	enzyme activity, time-dependent inhibitor	human liver microsomes	30 min NADPH preincubation, together with: amodiaquine N-deethylation		5.5 µM
CSc1ccc(-c2nsc(N)n2)cc1	Histone acetyltransferase RTT109 with Vps75	enzyme activity, inhibitor, HTS, CPM-based, dose response				> 125 µM
CC1(C)CC[C@]2(C(=O)O)CC[C@]3(C)C(=CC[C@@H]4[C@@]5(C)C[C@@H](O)[C@H](O)C(C)(C)[C@@H]5CC[C@]43C)[C@@H]2C1	serine/threonine phosphatase Stp1	phosphatase activity, inhibitor				> 135 µM
Cc1cc([C@@H](C)Nc2ccccc2C(=O)O)c2nc(N3CCCCC3)cc(=O)n2c1	Phosphatidylinositol 4,5-bisphosphate 3-kinase catalytic subunit alpha isoform, with p85 alpha (PIK3CA, Homo sapiens, UniProt P42336)	ADP-Glo		together with: ATP 10 µM		> 10 µM
C=CC(C)(C)c1cc(/C=C/C(=O)c2ccc(O)cc2)c(OC)cc1O	Histone-arginine methyltransferase CARM1 (Mus musculus, UniProt Q9WVG6)	methyltransferase activity, inhibitor		together with: histone H3 substrate, [3H]AdoMet		69 µM and ~60 µM
O=c1cc(-c2ccc(O)c(O)c2)oc2cc(O)cc(O)c12	Angiotensin-converting enzyme (ACE, Oryctolagus cuniculus, UniProt P12822)	enzyme activity, inhibitor	methanol/water 50:50	2 h, pH 8.3, 37 °C, together with: hippuryl-histidyl-leucine		54.2 ± 8.33 µM
O=c1nc(SCc2cc(F)cc(C(F)(F)F)c2)nc(SCc2ccc3sccc3c2)[nH]1	DNA topoisomerase 2-alpha (TOP2A, Homo sapiens, UniProt P11388)	ATPase activity, ATP-competitive inhibitor		together with: ATP 2 mM		8.6 µM
CN(C)C(=O)c1cc2cnc(Nc3ccc(-c4cccc5c(=O)cc(N6CCOCC6)oc45)cc3)nc2n1C1CCCC1	BRD4 BD1	inhibitor				0.154 µM
Cc1cc(OC(C)C)ccc1C(=O)C(C)(C)NC(=O)c1sccc1C	succinate dehydrogenase (Botrytis cinerea, UniProt A0A384J5E4+D2IH01+D2IH03)	enzyme activity, inhibitor, DCPIP reduction	Botrytis cinerea, mitochondrial fraction			0.00362 µM
Cc1cc(Nc2nnc(-c3n[nH]c4ccc(C)cc34)s2)cc([N+](=O)[O-])c1	thymidine phosphorylase	enzyme activity, inhibitor, spectrophotometric		pH 7.5, 25 °C		13.2 ± 1.52 µM
CN(C)C(=O)c1cc2cnc(Nc3ccc4c(=O)cc(N5CCNCC5)oc4c3)nc2n1C1CCCC1	BRD4 BD2	inhibitor				5.45 µM
CC(=O)Nc1nnc(N2CCN([C@@H](C)c3ccc4c(c3)OCO4)CC2)s1	Beta-hexosaminidase subunit alpha (Homo sapiens, UniProt P06865)	enzyme activity, inhibitor			top concentration 30 µM	> 30 µM
CC(NC(=O)C(C#N)=Cc1cccc(Cl)c1Cl)c1ccccc1 (stereo not shown)	UCHL1	inhibitor, ubiquitin-rhodamine cleavage		2 h preincubation		> 200 µM
Cc1c(-c2ccccc2)oc2ccccc2c1=O	Anoctamin-1 (Ano1, Mus musculus, UniProt Q8BHY3)	chloride current	HEK293 transfected	at +80 mV		26.5 µM
CN1CCN(c2ccc(Nc3ncc4cc(C#N)c(=O)n(C5CCCC5)c4n3)cc2)CC1	Serine/threonine-protein kinase PLK1 (PLK1, Homo sapiens, UniProt P53350)					2.79 µM

SMILES	target	assay	system	setting	how to read	IC50
N#CC(=Cc1cccc(Cl)c1Cl)C(=O)NCCc1ccccc1	UCHL1	inhibitor, ubiquitin-rhodamine cleavage		2 h preincubation		> 200 µM
COc1ccc2c(=O)[nH]c3c(nnn3Cc3ccc(C)cc3)c2c1	Protein mono-ADP-ribosyltransferase PARP12 (PARP12, Homo sapiens, UniProt Q9H0J9)					1.29 µM
Cc1cnc(-c2ccc(-c3ccc(NC(=O)Nc4c(F)cc(F)cc4F)cc3F)c3c2C(=O)NC3)[nH]1	Tyrosine-protein kinase BTK (BTK, Homo sapiens, UniProt Q06187)	enzyme activity, inhibitor, mobility shift		together with: ATP 1 mM		0.0093 µM
O=[N+]([O-])c1c(SCCO)ccc2nsnc12	Histone acetyltransferase RTT109 with Vps75	enzyme activity, inhibitor, HTS, CPM-based, dose response				> 125 µM
O=C1CCC(N2Cc3cc(NC(=O)c4ccc(F)cc4)ccc3C2=O)C(=O)N1 (stereo not shown)	Protein cereblon, with DDB1 (CRBN, Homo sapiens, UniProt Q96SW2)	binding, competitor, fluorescence polarization		together with: Cy5-labelled lenalidomide probe		2.1 µM
CN(C)C(=O)c1cc2cnc(Nc3cccc(-c4cccc5c(=O)cc(N6CCOCC6)oc45)c3)nc2n1C1CCCC1	BRD4 BD2	inhibitor				> 10 µM
Cc1ccc2[nH]nc(-c3nnc(Nc4ccc(C(F)(F)F)cc4)s3)c2c1	thymidine phosphorylase	enzyme activity, inhibitor, spectrophotometric		pH 7.5, 25 °C		6.29 ± 0.38 µM
CCN(c1ccccc1)S(=O)(=O)c1ccc(Cl)c(C(=O)Nc2ccccc2N2CCN(C(C)C)C2=O)c1	N-myristoyltransferase (Cryptosporidium parvum, UniProt Q5CV46)	enzyme activity, inhibitor				> 125 µM
CN(C)C(=O)c1cc2cnc(Nc3cc(C(=O)O)cc(-c4cccc5c(=O)cc(N6CCOCC6)oc45)c3)nc2n1C1CCCC1	BRD4 BD1	inhibitor				> 10 µM
COC(=O)c1ccn2c(NCCN3CCOCC3)c(-c3cccn3C)nc2c1	Phosphatidylinositol 4,5-bisphosphate 3-kinase catalytic subunit alpha isoform (PIK3CA, Homo sapiens, UniProt P42336)	enzyme activity		together with: 10 µM ATP		232 µM
O=S1(=O)C=C(Br)c2ccccc21	Histone acetyltransferase RTT109 with Vps75	enzyme activity, inhibitor, HTS, CPM-based, dose response				> 125 µM
Cc1ccccc1NC(=O)C(C#N)=Cc1ccccc1Cl	UCHL1	inhibitor, ubiquitin-rhodamine cleavage		2 h preincubation		> 200 µM
COc1cc(O)c(CC=C(C)C)c2c1C(=O)CC(c1ccc(O)cc1)O2 (stereo not shown)	CYP2C8	enzyme activity, inhibitor	human liver microsomes	pH 7.4, together with: amodiaquine		0.2 ± 0.1 µM
Cn1nc2c(=O)n(C3CC3)cnc2c1[C@](O)(c1cnc(C(F)(F)F)c(Cl)c1)C(F)(F)F	Dihydroorotate dehydrogenase (Canis lupus familiaris, UniProt A0A8I3MWX2)	enzyme activity, inhibitor, DCIP reduction				> 30 µM
O=C1CC(SCc2ccccc2)C(=O)N1c1ccc(Br)cc1 (stereo not shown)	Histone acetyltransferase RTT109 with Vps75	enzyme activity, inhibitor, HTS, CPM-based, dose response				> 125 µM
N=C(N)N1CCc2ccccc2C1	Serine protease 1 (PRSS1, Bos taurus, UniProt P00760)	enzyme activity, inhibitor				220 ± 30 µM
CC(C)c1ccc(S(=O)(=O)Nc2ccc(-c3nc4ccccc4s3)c(Cl)c2)cc1	Histone acetyltransferase RTT109 with Vps75	enzyme activity, inhibitor, HTS, CPM-based, dose response				> 125 µM
CC#CC(=O)N[C@H]1CCCN(c2c(F)cc(C(N)=O)c3[nH]c(C)c(C)c23)C1	Tyrosine-protein kinase Lyn (LYN, Homo sapiens, UniProt P07948)					2.55 µM
Sc1ncnc2nc[nH]c12	Histone acetyltransferase RTT109 with Vps75	enzyme activity, inhibitor, HTS, CPM-based, dose response				> 125 µM
CC[C@@H]1[C@H](F)C(=O)N[C@@H]1COc1nccc2cc(C(N)=O)c(OC)cc12	Serine/threonine-protein kinase 38-like (STK38L, Homo sapiens, UniProt Q9Y2H1)	ATP-site probe binding, ActivX profiling	THP-1 cell lysate	Lys2 site		1.5 µM
O=C(NC1CS(=O)(=O)c2ccccc21)c1cc2ccccc2s1 (stereo not shown)	Histone acetyltransferase RTT109 with Vps75	enzyme activity, inhibitor, HTS, CPM-based, dose response				> 125 µM
Cc1ccc(S(=O)(=O)C(CNC(=O)COc2ccccc2)c2cccs2)cc1 (stereo not shown)	CTNNB1 with BCL9 HD2	BCL9 binding, inhibitor, AlphaScreen				5.41 µM
O=S1(=O)C=C(Oc2ccc3ccccc3c2)c2ccccc21	Histone acetyltransferase RTT109 with Vps75	enzyme activity, inhibitor, HTS, CPM-based, dose response				> 125 µM
Cc1cc(C)nc(SCC(=O)Nc2ncc(Cc3cccc(OCc4cn(Cc5ccccc5C)nn4)c3)s2)n1	SIRT2					0.158 µM

Some of these lines once more:
SMILES	target	assay	system	setting	how to read	IC50
O=c1nc(SCc2cc(F)cc(C(F)(F)F)c2)nc(SCc2ccc3sccc3c2)[nH]1	DNA topoisomerase 2-alpha (TOP2A, Homo sapiens, UniProt P11388)	ATPase activity, ATP-competitive inhibitor		together with: ATP 2 mM		8.6 µM
O=C(O)c1ccc2nc(-c3ccc(OCC(COc4ccc(-c5nc6ccc(C(=O)O)cc6[nH]5)cc4)(COc4ccc(-c5nc6ccc(C(=O)O)cc6[nH]5)cc4)COc4ccc(-c5nc6ccc(C(=O)O)cc6[nH]5)cc4)cc3)[nH]c2c1	Beta-lactamase (Escherichia coli, UniProt Q8VNN1)	enzyme activity, inhibitor				37 ± 9.6 µM
O=C(Nc1cccnn1)N1CCC(=Cc2cccc(Oc3ccc(C(F)(F)F)cn3)c2)CC1	Fatty-acid amide hydrolase 1 (Faah, Rattus norvegicus, UniProt P97612)	enzyme activity, inhibitor	rat brain membranes	15 min preincubation		0.0015 µM
O=S1(=O)C=C(Oc2ccc3ccccc3c2)c2ccccc21	Histone acetyltransferase RTT109 with Vps75	enzyme activity, inhibitor, HTS, CPM-based, dose response				> 125 µM
